Measurements pooled from the literature.
Parts stem from different laboratories: compare values within a part only. Changes are numbered by the printed parent chain.

Series 1
Target: Protein C-ets-1 (ETS1, Homo sapiens, UniProt P14921, residues 1-441, Y397A, full length assumed)
Technique: protein-binding microarray
Molecule type: double-stranded DNA, one strand shown
Matrix: in vitro
Concentration: not given
Setting: k-mer, scored over probes, only values ≥0.25
Reading: higher = stronger binding
Target sequence (chain): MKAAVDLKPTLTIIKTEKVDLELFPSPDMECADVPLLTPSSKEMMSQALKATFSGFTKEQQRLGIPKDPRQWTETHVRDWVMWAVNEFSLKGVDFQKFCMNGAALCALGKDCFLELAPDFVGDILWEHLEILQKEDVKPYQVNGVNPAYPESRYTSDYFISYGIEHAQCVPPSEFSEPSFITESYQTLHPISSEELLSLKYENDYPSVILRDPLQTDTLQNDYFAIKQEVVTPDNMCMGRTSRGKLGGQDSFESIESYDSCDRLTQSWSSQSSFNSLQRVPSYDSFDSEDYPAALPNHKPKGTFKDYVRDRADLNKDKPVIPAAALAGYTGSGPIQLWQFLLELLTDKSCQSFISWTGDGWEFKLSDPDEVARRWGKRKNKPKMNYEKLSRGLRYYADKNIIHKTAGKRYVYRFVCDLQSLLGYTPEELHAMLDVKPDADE
With `ATCTGTCA` the E-score was 0.282.
The E-score of `GCGTCGGA` is reported as 0.303.
For `GTTGGCAA`, the E-score was 0.362.
`TGTCGACA` gave an E-score of 0.295.
The E-score of `AACACATT` is reported as 0.256.
The E-score of `TCGCCAAA` is reported as 0.334.
For `CCCGCCCA`, the E-score was 0.361.
With `ATTTTCCG` the E-score was 0.328.

Series 2
Target: CCND2, cyclin fold, Cln2 fusion (human)
Technique: yeast growth competition, sequencing
Matrix: yeast
Setting: weak parent motif
Baseline: not given
Reading: higher = stronger binding
Parent: viral docking peptide; KKAKRRLFTISDS; partner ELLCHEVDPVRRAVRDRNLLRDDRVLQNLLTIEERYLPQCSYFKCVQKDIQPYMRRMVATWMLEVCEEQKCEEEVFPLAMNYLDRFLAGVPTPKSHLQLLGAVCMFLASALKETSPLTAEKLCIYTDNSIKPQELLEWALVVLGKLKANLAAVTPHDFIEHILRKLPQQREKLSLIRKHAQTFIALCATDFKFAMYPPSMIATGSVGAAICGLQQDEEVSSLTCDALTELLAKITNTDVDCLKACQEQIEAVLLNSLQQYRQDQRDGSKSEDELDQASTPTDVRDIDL
`K2A` — result for “normalised enrichment score”: 0.0131.
Under “normalised enrichment score”, `R5K` is recorded as -0.282.
Under “normalised enrichment score”, `S13A` is recorded as 0.476.
For `R5A L7A`, “normalised enrichment score” read -0.085.
`D12A`: “normalised enrichment score” -0.0522.
For `K4A`, “normalised enrichment score” read -0.0516.
`T9A` — result for “normalised enrichment score”: 0.245.
`L7A` — result for “normalised enrichment score”: -0.107.
Under “normalised enrichment score”, `R5K F8L` is recorded as -0.144.

Series 3
Target: ABI1, truncated, D143A, DHFR fusion (Arabidopsis thaliana)
Technique: DHFR PCA, deep sequencing
Matrix: yeast
Setting: methotrexate growth selection, single substitutions
Together with: (+)-ABA 710 µM
Baseline: wild-type fitted maximum
Reading: higher = stronger binding
Parent: PYL1, truncated, DHFR fusion (Arabidopsis thaliana); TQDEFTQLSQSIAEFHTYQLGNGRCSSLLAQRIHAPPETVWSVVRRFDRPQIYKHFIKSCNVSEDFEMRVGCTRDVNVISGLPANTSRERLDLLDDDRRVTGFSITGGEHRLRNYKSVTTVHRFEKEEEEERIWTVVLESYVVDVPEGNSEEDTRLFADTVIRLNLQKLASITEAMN; partner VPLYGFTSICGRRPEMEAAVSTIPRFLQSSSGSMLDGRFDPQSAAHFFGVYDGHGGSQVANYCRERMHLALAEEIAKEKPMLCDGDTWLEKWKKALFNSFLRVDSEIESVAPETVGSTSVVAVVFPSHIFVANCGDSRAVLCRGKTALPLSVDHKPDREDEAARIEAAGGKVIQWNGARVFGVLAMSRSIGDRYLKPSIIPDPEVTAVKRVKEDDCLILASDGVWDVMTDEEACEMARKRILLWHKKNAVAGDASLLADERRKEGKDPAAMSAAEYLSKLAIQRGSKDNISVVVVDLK
`V78K` — result for “relative binding score”: -28.5%.
`G108N`: “relative binding score” 47.5%.
For `F103I`, “relative binding score” read 80%.
For `N85A`, “relative binding score” read 104%.
For `V76K`, “relative binding score” read -5.38%.
Under “relative binding score”, `R98L` is recorded as 105%.
Under “relative binding score”, `V44A` is recorded as 90.4%.
`S26K`: “relative binding score” 96.7%.

Series 4
Target: CRIPT, C-terminal peptide
Technique: DHFR complementation, deep sequencing
Matrix: yeast
Setting: single substitutions, model-inferred values
Baseline: wild type
Reading: higher = weaker binding
Parent: ERBIN, PDZ domain 1 (human); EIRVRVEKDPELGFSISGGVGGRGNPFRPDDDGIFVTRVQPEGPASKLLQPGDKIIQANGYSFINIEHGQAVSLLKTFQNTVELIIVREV; partner TKNYKQTSV
Under “binding free energy change”, `K54L` is recorded as 0.213 kcal/mol.
`G69I`: “binding free energy change” 0.161 kcal/mol.
Under “binding free energy change”, `E42I` is recorded as 0.358 kcal/mol.
`R38Q`: “binding free energy change” -0.127 kcal/mol.
Under “binding free energy change”, `A45I` is recorded as 1.15 kcal/mol.
For `Y61Q`, “binding free energy change” read -0.0453 kcal/mol.
For `K76F`, “binding free energy change” read 0.745 kcal/mol.
Under “binding free energy change”, `G22S` is recorded as -0.433 kcal/mol.
